Assay results collected from several papers.
Numbered parts are unrelated; each lists some results of a single study.

Set 1 — read-out: ligand displacement; tested at: 10 µM; measurement: inhibition
Target: Histamine H1 receptor (HRH1, Homo sapiens, UniProt P35367)
Chain of UniProt P35367 (whole entry, looked up): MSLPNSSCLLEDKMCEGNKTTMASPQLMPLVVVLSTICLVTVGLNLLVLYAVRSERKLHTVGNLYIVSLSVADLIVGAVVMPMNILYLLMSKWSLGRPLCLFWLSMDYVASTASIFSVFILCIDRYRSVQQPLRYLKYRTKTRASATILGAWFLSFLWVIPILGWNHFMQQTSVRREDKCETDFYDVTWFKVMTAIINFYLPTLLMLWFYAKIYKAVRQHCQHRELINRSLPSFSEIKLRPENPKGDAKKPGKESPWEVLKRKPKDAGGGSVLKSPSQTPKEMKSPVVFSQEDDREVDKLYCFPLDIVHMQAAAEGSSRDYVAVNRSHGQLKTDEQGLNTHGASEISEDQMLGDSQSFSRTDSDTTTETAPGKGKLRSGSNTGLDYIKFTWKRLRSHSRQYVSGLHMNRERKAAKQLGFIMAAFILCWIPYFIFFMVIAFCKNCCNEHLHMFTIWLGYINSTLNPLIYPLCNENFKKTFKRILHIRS
CCC(F)(F)c1cc(N2CCC(S(C)(=O)=O)CC2)nc2sc(C(N)=O)c(N)c12: 9.22%
Nc1nc(NCc2ccccc2)nc(-c2ccccc2CO)n1: -4.07%
CCC(=NO)C(C)=Cc1ccc(F)c(C)c1: 15.2%
CC(=O)Nc1ncc(CN2CCC[C@H](Cc3cc(C)nc(C)c3)C2)s1: 44%
COc1cc(N[C@@H]2CCCC[C@]2(O)C(F)(F)F)ccc1F: -8.03%
CS(=O)(=O)N1CCCC(NC(=O)[C@H](CCC2CCCCC2)NC(=O)c2ccc(CNC(=O)c3cnc4ccccn34)cc2)C1 (stereo partly drawn): 3.62%

Set 2 — action: agonist; measurement: EC50
Target: Beta-1 adrenergic receptor (ADRB1, Homo sapiens, UniProt P08588)
Chain of UniProt P08588 (whole entry, looked up): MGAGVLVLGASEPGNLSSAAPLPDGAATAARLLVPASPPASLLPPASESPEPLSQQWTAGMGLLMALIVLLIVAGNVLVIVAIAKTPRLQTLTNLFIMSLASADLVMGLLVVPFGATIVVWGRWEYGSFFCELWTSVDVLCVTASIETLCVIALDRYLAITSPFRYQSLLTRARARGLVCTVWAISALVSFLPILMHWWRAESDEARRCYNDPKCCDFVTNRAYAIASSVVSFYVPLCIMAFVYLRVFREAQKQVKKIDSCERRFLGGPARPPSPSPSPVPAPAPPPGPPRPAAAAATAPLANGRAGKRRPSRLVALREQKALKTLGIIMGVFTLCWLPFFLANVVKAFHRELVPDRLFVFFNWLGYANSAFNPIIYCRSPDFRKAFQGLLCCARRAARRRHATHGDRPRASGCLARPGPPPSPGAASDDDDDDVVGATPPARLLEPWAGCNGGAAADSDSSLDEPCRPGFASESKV
[O-][n+]1cccc(-c2nc3c(Cl)cccc3cc2[C@@H](Nc2ncnc3cccnc23)C(F)(F)F)c1: ≥ 100 µM
CC(C)(C)c1ccc(O)c(O)c1: ≥ 100 µM
O=C(Nc1ccccc1)Nc1ccc([C@@H](O)[C@H]2COCC(=O)N2Cc2ccc(F)cc2)cc1: ≥ 100 µM
O=S(=O)(O)c1cc(I)c(O)c2ncccc12: ≥ 100 µM
O=C(Nc1cccc(-c2ccc(N3CCOCC3)nn2)c1)Nc1cc(Cl)ccc1Cl: ≥ 100 µM

Set 3 — host: mouse; sample: microsomes or S9; tested at: 2 µM; time: 0.5 h; measurement: remaining compound
Cc1noc(C)c1Cc1nc(-c2c(Cl)nc3sccn23)no1: 2.87%
O=C(C1=Cc2ccccc2OC=C1)N1CCCCC1c1ccccn1 (stereo not drawn): 4.55%
Cc1cc2c(cc1C)OC(c1nc(N(C)C)no1)C2 (stereo not drawn): 6.84%
O=S(=O)(c1c[nH]c2ncc(Cl)cc12)N1CCn2ncnc2C1: 28.7%
c1ccc(-c2cn3c4ccccc4n(CCN4CCOCC4)c3n2)cc1: 0.0311%
O=S(=O)(Nc1cccn2c(C3CCC3)nnc12)c1ccc2c(c1)OCCO2: 33%
COc1ccc(C)cc1NC(=O)c1cc(S(=O)(=O)N2CCOCC2)cn1C: 17.9%
COc1ccc(-c2cc(CNC(=O)c3ccc(=O)[nH]n3)no2)cc1OC: 81.8%

Set 4 — read-out: enzyme activity; action: inhibitor; tested at: 0.5 µM; reference: control; measurement: remaining activity
Target: Homeodomain-interacting protein kinase 4 (HIPK4, Homo sapiens, UniProt Q8NE63)
Construct (Q8NE63 1-616): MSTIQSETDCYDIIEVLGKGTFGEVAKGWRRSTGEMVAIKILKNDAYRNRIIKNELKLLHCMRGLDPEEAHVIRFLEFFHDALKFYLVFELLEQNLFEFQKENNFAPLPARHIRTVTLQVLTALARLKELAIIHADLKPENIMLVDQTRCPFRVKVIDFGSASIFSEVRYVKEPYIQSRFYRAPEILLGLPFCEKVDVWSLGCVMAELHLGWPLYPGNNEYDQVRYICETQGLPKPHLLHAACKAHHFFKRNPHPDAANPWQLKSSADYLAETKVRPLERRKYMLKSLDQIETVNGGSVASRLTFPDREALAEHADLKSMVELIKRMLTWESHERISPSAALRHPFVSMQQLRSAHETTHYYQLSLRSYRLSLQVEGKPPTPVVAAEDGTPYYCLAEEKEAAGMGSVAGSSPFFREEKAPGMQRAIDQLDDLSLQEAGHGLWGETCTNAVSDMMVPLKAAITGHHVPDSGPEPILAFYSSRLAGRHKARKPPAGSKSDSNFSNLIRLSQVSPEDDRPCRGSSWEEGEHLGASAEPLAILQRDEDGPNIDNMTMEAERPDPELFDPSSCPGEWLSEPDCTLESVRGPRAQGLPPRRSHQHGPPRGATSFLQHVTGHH
Cn1sc(=O)n(Cc2ccccc2)c1=O: 98.2%
CC(C)[C@H](CO)Nc1nc(Nc2cc(N)cc(Cl)c2)c2ncn(C(C)C)c2n1: 96.4%
O=C(CCCc1ccc(-c2ccccc2F)cc1)Nc1ccc(O)cc1: 105%
Nc1ncnc2n[nH]c(Nc3ccc(F)cc3)c12: 98.5%
N#CC(C#N)=C(N)/C(C#N)=C/c1ccc(O)cc1: 99.7%
Cn1c2ccccc2c2c3c(c4c5ccccc5n(CCC#N)c4c21)CNC3=O: 103%
COc1cc2ncnc(Nc3ccc(Oc4ccccc4)cc3)c2cc1OC: 91.8%
COc1cc2ncnc(Nc3ccc(F)c(Cl)c3)c2cc1OCCCN1CCOCC1: 90.4%
Cc1cccc(-c2[nH]c(C(C)(C)C)nc2-c2ccc3c(c2)OCO3)n1: 107%
O=C(Nc1cccc(Nc2cc(Nc3cccc(C(F)(F)F)c3)ncn2)c1)C1CC1: 101%
Oc1ccc(-c2nc(-c3ccncc3)c(-c3ccc(F)cc3)[nH]2)cc1: 89.7%
NCCNc1ncc(C(N)=O)c(Nc2cccc(C(F)(F)F)c2)n1: 96.4%
COc1ccc(OC)c2c(=S)c3ccccc3[nH]c12: 97.3%
OCC(O)CCON=C1C(c2c(O)[nH]c3ccccc23)=Nc2ccccc21 (stereo not drawn): 108%

Excerpt of the above (set 4):
N#CC(C#N)=C(N)/C(C#N)=C/c1ccc(O)cc1: 99.7%
Cn1c2ccccc2c2c3c(c4c5ccccc5n(CCC#N)c4c21)CNC3=O: 103%
COc1cc2ncnc(Nc3ccc(Oc4ccccc4)cc3)c2cc1OC: 91.8%
COc1cc2ncnc(Nc3ccc(F)c(Cl)c3)c2cc1OCCCN1CCOCC1: 90.4%
Cc1cccc(-c2[nH]c(C(C)(C)C)nc2-c2ccc3c(c2)OCO3)n1: 107%
